Published values gathered from unrelated publications.
Every numbered part comes from another study and shows a few of its results, in no order. Positions count from the first letter of the parent shown.

Block 1
Target: ABI1, truncated, D143A, DHFR fusion (Arabidopsis thaliana)
Technique: DHFR PCA, deep sequencing
Sample: yeast
Notes: methotrexate growth selection, single substitutions
With: (+)-ABA 0.032 µM
Relative to: wild-type fitted maximum
Reading: higher = stronger binding
Starting sequence: PYL1, truncated, DHFR fusion (Arabidopsis thaliana); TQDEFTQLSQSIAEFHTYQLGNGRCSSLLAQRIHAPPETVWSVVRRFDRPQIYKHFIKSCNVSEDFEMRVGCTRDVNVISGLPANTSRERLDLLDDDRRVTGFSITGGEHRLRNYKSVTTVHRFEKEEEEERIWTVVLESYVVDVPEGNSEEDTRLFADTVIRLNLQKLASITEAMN
Variant | relative binding score [%]
T119D | 1.86
N149A | 44.3
I33C | 1.58
K54C | -2.55
F15W | 27.9
P37D | 0.952
H122I | 0.295
Q167C | 1.53
N77H | 56.6
L164M | 18.4
C25T | 44.7
D95S | -2.37
E152W | 4.88
R111S | 5.59
A84W | 102
T160I | -3.84
G23Q | 8.59

Block 2
Target: Sal-like protein 4, full length isoform A (SALL4, Homo sapiens, UniProt Q9UJQ4, residues 1-1053)
Sequence of UniProt Q9UJQ4 (whole entry, looked up): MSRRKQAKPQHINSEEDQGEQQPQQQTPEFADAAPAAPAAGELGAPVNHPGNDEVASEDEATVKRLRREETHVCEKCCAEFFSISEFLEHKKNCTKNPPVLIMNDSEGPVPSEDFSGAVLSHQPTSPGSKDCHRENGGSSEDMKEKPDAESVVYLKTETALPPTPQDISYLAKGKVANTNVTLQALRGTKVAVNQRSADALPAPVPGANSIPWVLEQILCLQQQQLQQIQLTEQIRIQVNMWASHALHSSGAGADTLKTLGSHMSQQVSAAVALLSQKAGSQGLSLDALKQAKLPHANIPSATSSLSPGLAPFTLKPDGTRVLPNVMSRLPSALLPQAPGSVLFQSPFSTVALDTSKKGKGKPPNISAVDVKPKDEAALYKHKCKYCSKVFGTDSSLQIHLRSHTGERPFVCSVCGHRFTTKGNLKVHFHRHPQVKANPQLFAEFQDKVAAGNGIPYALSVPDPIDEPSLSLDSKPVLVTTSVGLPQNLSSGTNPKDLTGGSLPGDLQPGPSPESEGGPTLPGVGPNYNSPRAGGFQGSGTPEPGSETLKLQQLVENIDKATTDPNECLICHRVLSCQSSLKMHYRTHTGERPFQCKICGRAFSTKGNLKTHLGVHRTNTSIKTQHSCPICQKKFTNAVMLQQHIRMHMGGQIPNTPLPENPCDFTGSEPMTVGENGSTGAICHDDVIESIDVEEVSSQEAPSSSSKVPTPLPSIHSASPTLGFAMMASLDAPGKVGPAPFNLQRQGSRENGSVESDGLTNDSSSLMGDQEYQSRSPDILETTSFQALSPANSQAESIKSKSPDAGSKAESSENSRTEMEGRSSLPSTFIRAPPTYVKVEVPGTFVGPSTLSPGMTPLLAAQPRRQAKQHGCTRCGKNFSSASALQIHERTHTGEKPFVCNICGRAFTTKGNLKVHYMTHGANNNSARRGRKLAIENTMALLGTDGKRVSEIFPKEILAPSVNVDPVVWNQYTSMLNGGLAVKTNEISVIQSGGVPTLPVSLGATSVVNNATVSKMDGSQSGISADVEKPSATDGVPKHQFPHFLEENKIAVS
Technique: universal PBM
Form: double-stranded DNA, one strand shown
Sample: in vitro
Concentration: 600 nM
Notes: 8-mer, flanks averaged, mean of replicates
Reading: higher = stronger binding
Strand | E-score
ACGGAGAT | -0.125
AGTGCCAT | 0.0126
GCCTGTCC | -0.269
CAATTAAC | 0.255
TCCCTTCA | -0.0118
AAGCAATA | 0.235
AGCCCTAT | -0.0679
AACCTGAA | -0.0264
GGTGAAGA | -0.15
GAGTACAA | 0.136
AGAAACAA | 0.29
AAACGAGG | -0.183
ATACTTTA | 0.356
CTTTAAAC | 0.0826
AGATTCGC | 0.0394
ATGGTCAC | -0.0459
CACGTTAG | -0.0364
CACGACTG | -0.2
CACAAATA | 0.326
CTCAAGGC | -0.177

Block 3
Target: Ras GTPase-activating protein-binding protein 1, RRM domain (G3BP1, Homo sapiens, UniProt Q13283)
Sequence of UniProt Q13283 (whole entry, looked up): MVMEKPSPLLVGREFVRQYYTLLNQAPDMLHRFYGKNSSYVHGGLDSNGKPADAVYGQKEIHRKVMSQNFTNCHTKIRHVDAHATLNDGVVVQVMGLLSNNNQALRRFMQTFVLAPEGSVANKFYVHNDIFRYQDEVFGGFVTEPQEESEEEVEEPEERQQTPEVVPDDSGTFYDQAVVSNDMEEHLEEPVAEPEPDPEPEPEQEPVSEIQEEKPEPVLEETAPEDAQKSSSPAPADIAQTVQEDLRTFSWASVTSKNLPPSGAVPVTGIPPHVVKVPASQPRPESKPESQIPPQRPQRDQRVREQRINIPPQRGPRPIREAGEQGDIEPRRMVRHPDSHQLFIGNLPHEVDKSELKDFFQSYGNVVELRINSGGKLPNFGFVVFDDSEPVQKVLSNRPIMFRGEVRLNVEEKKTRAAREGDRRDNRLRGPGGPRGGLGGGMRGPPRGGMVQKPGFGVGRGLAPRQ
Technique: RNA Bind-n-Seq
Form: RNA
Sample: in vitro
Concentration: 1 µM
Notes: whole 134-nt RNA, ends assumed
With: 150 mM KCl
Relative to: input library
Reading: higher = stronger binding
All sequences stand within: GGGAGUUCUACAGUCCGACGAUC … UGGAAUUCUCGGGUGUCAAGG
Strand | log2 enrichment
UCCUGUGCUACACAUCGUAUGUACCGAAUCGGGGAAAAAAAGGGGAAAAAGGGGAGGGGAAAGUAUUAUGUUACGCCGUUCGGAUCUGCA | 0.782
CAAGUCCUGUGCUACACAUCGUAUGUACCGAAUCGGGGCCCGGCCCGGGGCCCGGAAAGUAUUAUGUUACGCCGUUCGGAUCUGCACUUC | -0.845
CUCAAGUCCUGUGCUACACAUCGUAUGUACCGAAUCGGCCGGGGCCGGGGCCGGAAAGUAUUAUGUUACGCCGUUCGGAUCUGCACUUCC | -1.37
CACAGACAACACGCACCCACACAGACACAGAGGGAAGGGGUUGGGAUGGGGACAGGGUGCACAGCAGGGCAAAGUAGGACCCCAGCCCCU | -0.0659
GCAGGAAGUAAAAACAAAUGGAAAUGCUUCGGAUAGUGGCAGGGGUGGGGGUUGCUAAGCAAAGGGUGGGAUGGGAGUGGGUAAAGAGUU | 1.11
UCAAGUCCUGUGCUACACAUCGUAUGUACCGAAUCGGGAAGGGAAGGGGAAGGGGAAAGUAUUAUGUUACGCCGUUCGGAUCUGCACUUC | 1.04
CCUGUGCUACACAUCGUAUGUACCGAAUCGGGGAAAAAAGGGAAAAAAGGGGAAAAAAGGGAAAGUAUUAUGUUACGCCGUUCGGAUCUG | -0.0184
ACCAUGCAGGUGGGCAUCUUUGGGAAGUGGGGCAAGGGGGGGAUAGGGAGGGGGGUAACACUUUGGGGACAGGUGGUCCCAGGUCGUUUC | 0.853
CACAGACAACACGCACCCACACAGACACAGAGGGAAGGGGUGGGGAUGGGGACAGGGUGCACAGCAGGGCGGGGUAGGACCCCAGCCCCU | 0.237
AGUCCUGUGCUACACAUCGUAUGUACCGAAUCGGGUUUUUUUGGGAGGGAAAAAGGGAAAGUAUUAUGUUACGCCGUUCGGAUCUGCACU | 0.355
CCUGUGCUACACAUCGUAUGUACCGAAUCGGGAAAAAAAGGGAAAAAGGGAAAAAAAGGGAAAGUAUUAUGUUACGCCGUUCGGAUCUGC | -0.0454
AAGUCCUGUGCUACACAUCGUAUGUACCGAAUCGGGGAGGGGUUUGGGGUUUGGGGAAAGUAUUAUGUUACGCCGUUCGGAUCUGCACUU | 0.867
GCAGGAAGUAAAAACAAAUGGAAAUGCUUCGGAUAGUGGCAGGGGUGGGGGUUGCUAAUGAAAGGGUGGGAUGGGAGUGGGUAAAGAGUU | 1.87
CUGUGCUACACAUCGUAUGUACCGAAUCGGGUUUUUUUGGUUUUUUUGGGUUUUUUUGGGGAAAGUAUUAUGUUACGCCGUUCGGAUCUG | -0.285

Block 4
Target: CCNA2, cyclin fold, Cln2 fusion (human)
Technique: yeast growth competition, sequencing
Sample: yeast
Notes: strong parent motif
Relative to: not given
Reading: higher = stronger binding
Starting sequence: REV3L docking peptide (human); PPVIIKYIIINRF
Variant | normalised enrichment score
PPVIAKYIIINRF [I5A] | 0.57
PPVIIKYIIIARF [N11A] | 0.965
PPVIIKYIIANRF [I10A] | 1.86
PPAIIKYIIINRF [V3A] | 1.56
PAVIIKYIIINRF [P2A] | 1.6
APVIIKYIIINRF [P1A] | 1.19

Block 5
Target: RING finger protein unkempt homolog, zinc fingers 1-6, SBP tag (UNK, Homo sapiens, UniProt Q9C0B0, residues 30-357)
Sequence of UniProt Q9C0B0 (30-357, looked up): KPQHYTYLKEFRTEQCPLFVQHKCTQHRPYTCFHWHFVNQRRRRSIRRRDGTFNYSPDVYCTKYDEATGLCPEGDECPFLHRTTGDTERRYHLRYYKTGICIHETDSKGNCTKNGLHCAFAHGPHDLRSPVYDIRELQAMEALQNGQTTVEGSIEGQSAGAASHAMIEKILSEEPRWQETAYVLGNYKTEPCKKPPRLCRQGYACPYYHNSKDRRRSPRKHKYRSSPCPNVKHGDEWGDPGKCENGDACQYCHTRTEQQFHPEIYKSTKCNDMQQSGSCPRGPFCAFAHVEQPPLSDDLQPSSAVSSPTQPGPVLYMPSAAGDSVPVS
Technique: RNA Bind-n-Seq
Form: RNA
Sample: in vitro
Concentration: 100 nM
Notes: RNA with constant flanks, vertebrate orthologous sites, ends assumed
Relative to: input RNA pool
Reading: higher = stronger binding
All sequences stand within: GGGAGUUCUACAGUCCGACGAUC … CAACAGAGGAUUGAGCAUCA
Strand | bound/input enrichment [ratio]
GAACUAAAGGAGUUAGCAUCUUUAUUUUUGUAUCAAAGAUGAAGAUUAUUUUGAAAUUAUUAAGAUUUUUACACAACUCUGAAGUCUGUUGCUUUUGUAAACAAGUUGUUUAAUCUUAGG | 0.498
UUCAGGCUCAACUGACUGUUUCACAGCAUUCCUUACACAGCUAUUUAACAAGUACAGGUGGAGUUAAUUUUCAGGAUACGUCUAGGCACUCAGCAUUAUCUUGCAGCCCAGUUGAAGAUG | 0.601
AACAACUCAAGGAUUCAGGACUGGUUUUACAAAUAUACCAAGCAAAUAUGGAACUAACAGUAGAGGGCAAUCCAGACCAUAAGACACUGCCAUUUGAUCUUAUUUAUUCUUAUUAAGGGU | 0.818
CACGCUUUAUUGAUUUCUAAUUUAUUUCACUUUGACUAUGGUUUAUGAUUUGCUAUACCAAAUGGUGGUGGUAAAAACCUUUACCUAUAAUGGGCGUUGCUAUAGUAACAUGUGUUUGUU | 0.963
CAACGCCAUGGUGGAUGGCUCGGAGCUGAAGAAGGUGCGCUCCAACUCCCGCGUCUACCACCGCUACUUCCUGCUCGACGCCGACAUGCAGUCGCUGAGGUGGGAGCCCUCGAAGAAGGA | 0.275
UACAGAGGAGAGCUCACAACUCAAAGGAAAACCACUAAAGAGUUUCUAAUAGUCAAGAGCUAGGAAAUAUUAAGUCAACUUUACAAAUAAUAGCAAUUAAAAAAAGAGAUGAGAACACAG | 0.726
UUGGGACCAGCUCUUCAAAUAGGAAUAGUAGUAAAAAAAGUAAGCAAAAUGAUAUUUGUAUAGAAAAAACAGAAGUUAAAUCAUGCAAGGCAAAUGCUGCCAGUGUUCCAGGCCCUAAAG | 1.05
UUUUAUUGAUCAGGUCUGUAAAUGUGUACUAAAAAAAUCAGAGUUUAUUUAUAAACAGAAUAGUUUAUUUAAGAAAAACUCUUUCCUCACCGACCUUGUGGUAUGCAUUAAUUCCAUUUG | 0.0814
GCAAUGAAAAAGCAGCCCUUCUCCCAGUCCCCUUUUCACUAGGAGAUACAAACAGUACCAUAGAAGAGCAAUUAAAUUCAAUAAAUUUAUCUUUUCAGGAUGAUCCAGACUCCAGUACCA | 1.01
UUUAAAGUCAUUUUUCCACAUUUCCUGUAAAUAAUGGUUAAUCGUUUUUUAUUUUAUUUUUAAGUGCUGUUUAACAAUGUGGCUAGACCAUAAAUGUACUUGCUGAAUUCAUUCAUUUUU | 0.39
UCAUUGGGUUACUCCUAUUAUCAAGUAGCUGGAAUUGUGAAGGUUGAGUAGUUAGAUCUUUAGCUUUUAUUCAUUAUUUUUUGUAUUACUCUCCAUGUGUAUAAAUUAUUGAUCAUGUUG | 2.7

Other studies, line by line
Substance | target | assay | system | setting | how to read | endpoint | result
PhoQ, residues 284 288 289 292 302 303 SLKLQV | PhoP, residues 12 14 15 18 19 NYFTV (Escherichia coli, UniProt P23836) | Sort-seq, refers to: YFP reporter | E. coli | PhoQ-PhoP variant library, with: 10 µM Mg2+ | relative to: high Mg2+ state, higher = stronger signaling | fold induction | 10.1

For quick reference, copied from above (block 1):
Variant | relative binding score [%]
P37D | 0.952
H122I | 0.295
Q167C | 1.53
N77H | 56.6
L164M | 18.4
